Experimental data gathered from unrelated publications.
Parts stem from different laboratories: compare values within a part only.

Study 1
Target: PABPC1L2, full length, GST fusion (mouse, UniProt A0ABA7IW68)
Method: RNAcompete
Form: RNA
Sample: in vitro
Concentration: 20 nM
Setting: 7-mer, probes averaged, single round
Relative to: mean of 7-mers
Direction: higher = stronger binding
Target sequence (chain): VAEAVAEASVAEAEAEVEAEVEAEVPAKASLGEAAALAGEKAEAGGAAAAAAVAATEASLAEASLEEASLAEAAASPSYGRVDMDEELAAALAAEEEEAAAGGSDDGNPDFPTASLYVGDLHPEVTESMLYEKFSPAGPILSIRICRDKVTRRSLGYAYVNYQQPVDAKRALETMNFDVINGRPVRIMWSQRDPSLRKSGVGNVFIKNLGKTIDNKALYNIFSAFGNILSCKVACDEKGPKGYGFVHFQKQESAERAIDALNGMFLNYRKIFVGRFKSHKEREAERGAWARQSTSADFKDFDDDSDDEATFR
The 7-mer Z-score of `UCGGACU` is reported as -0.248.
For `GCCGAAC`, the 7-mer Z-score was -0.177.
With `CUAUUGG` the 7-mer Z-score was -0.159.
`ACAUAAC` has a 7-mer Z-score of 0.122.
For `AUGUUCU`, the 7-mer Z-score was -0.307.
For `GCGGGGG`, the 7-mer Z-score was 0.637.
`GCGAGAA` has a 7-mer Z-score of 0.135.
With `GUCGUUA` the 7-mer Z-score was -0.416.
With `CGAACCU` the 7-mer Z-score was -0.179.
With `AAGCAUG` the 7-mer Z-score was 0.211.
`GGGUAGU` gave a 7-mer Z-score of 0.0587.
For `UGAAGAG`, the 7-mer Z-score was -0.108.
`UCUAUUC` gave a 7-mer Z-score of -0.421.
The 7-mer Z-score of `UCAACAC` is reported as -0.108.
With `GUUAGGG` the 7-mer Z-score was -0.00833.
With `CCUUACG` the 7-mer Z-score was -0.389.
`AAAUGGU` gave a 7-mer Z-score of 0.838.
`UGUAUCC` gave a 7-mer Z-score of -0.329.
For `UGUCUCG`, the 7-mer Z-score was -0.431.
`ACGGGCU` gave a 7-mer Z-score of 0.332.
`AAAAUUU` has a 7-mer Z-score of 4.61.
`AUGCCCG` gave a 7-mer Z-score of -0.347.
`GGCGCGG` has a 7-mer Z-score of 0.0877.
`CGAGCGU` has a 7-mer Z-score of -0.0718.
With `CCAGUUU` the 7-mer Z-score was -0.443.

Study 2
Target: Histone acetyltransferase KAT6A, winged helix 2, GST fusion (KAT6A, Homo sapiens, UniProt Q92794, residues 85-181)
Method: protein binding microarray
Form: double-stranded DNA, one strand shown
Sample: in vitro
Concentration: not given
Setting: 8-mer, flanks averaged, mean of 2 arrays, mostly near background
Relative to: not given
Direction: higher = stronger binding
Target sequence (chain): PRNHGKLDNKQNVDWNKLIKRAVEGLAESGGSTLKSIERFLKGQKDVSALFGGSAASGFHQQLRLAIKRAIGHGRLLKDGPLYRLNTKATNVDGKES
The E-score of `CTGCTGAA` is reported as 0.0607.
`AAAGTTAG` gave an E-score of 0.0289.
With `GATATTAA` the E-score was 0.135.
`CGTAACGA` gave an E-score of -0.132.
`CCTATATC` gave an E-score of -0.0974.
With `GAAAACGC` the E-score was 0.0814.
`ACTATACT` has an E-score of -0.0211.
The E-score of `CCTTCGAC` is reported as -0.0369.
With `GCTTCTCC` the E-score was -0.0957.
`GCTTAACC` has an E-score of -0.0226.
The E-score of `CTGACAAC` is reported as 0.127.
With `GGTCTCAC` the E-score was -0.0914.
For `ATGATTGG`, the E-score was -0.0999.
For `AAAATTCC`, the E-score was -0.0668.
For `GGGCCACA`, the E-score was 0.0601.
With `ACAGCCAC` the E-score was 0.178.

Study 3
Target: Protein max, full length (MAX, Homo sapiens, UniProt P61244-2, residues 1-151)
Method: protein-binding microarray
Form: double-stranded DNA, one strand shown
Sample: in vitro
Concentration: not given
Setting: k-mer, scored over probes, only values ≥0.25
Direction: higher = stronger binding
For `CGTGTGAG`, the E-score was 0.331.
`ACGCGAGG` has an E-score of 0.309.
For `ACTGCATG`, the E-score was 0.335.
With `CCGCGCGC` the E-score was 0.298.
`CGTGTGTA` gave an E-score of 0.385.
With `AATCACAT` the E-score was 0.355.
With `GCAGCGCA` the E-score was 0.253.
With `CTCGTGCA` the E-score was 0.402.
For `ACGTGGAT`, the E-score was 0.426.
`ATGTCACG` has an E-score of 0.377.
For `CATGGTAG`, the E-score was 0.313.
With `ATGCGTTA` the E-score was 0.296.
For `CCACGCTA`, the E-score was 0.369.
For `ACGACACG`, the E-score was 0.327.
With `CGCATGTA` the E-score was 0.395.
`ATGCGTAG` has an E-score of 0.273.
The E-score of `ATGCCACA` is reported as 0.292.
For `CATGTCAC`, the E-score was 0.335.
For `CGCGGCCA`, the E-score was 0.251.
`GCACGTTA` has an E-score of 0.388.
With `CCGTGCTC` the E-score was 0.266.

Study 4
Target: RING finger protein unkempt homolog, zinc fingers 1-6, GST-SBP tag (UNK, Homo sapiens, UniProt Q9C0B0, residues 30-357)
UniProt Q9C0B0, sequence (30-357, looked up): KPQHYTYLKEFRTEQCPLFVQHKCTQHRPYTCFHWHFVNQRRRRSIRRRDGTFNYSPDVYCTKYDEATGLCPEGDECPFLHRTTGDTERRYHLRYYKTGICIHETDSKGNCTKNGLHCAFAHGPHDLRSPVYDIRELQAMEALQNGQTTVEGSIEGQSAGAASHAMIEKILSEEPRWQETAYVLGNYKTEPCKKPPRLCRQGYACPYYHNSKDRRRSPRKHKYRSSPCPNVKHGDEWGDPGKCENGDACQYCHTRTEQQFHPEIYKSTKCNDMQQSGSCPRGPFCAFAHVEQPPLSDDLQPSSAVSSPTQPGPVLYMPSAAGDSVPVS
Method: RNA Bind-n-Seq
Form: RNA
Sample: in vitro
Concentration: not given
Setting: RNA with constant flanks, human and mouse sites, ends assumed
Relative to: input RNA pool
Direction: higher = stronger binding
Shared flanks, not repeated: GGGAGUUCUACAGUCCGACGAUC … CAACAGAGGAUUGAGCAUCA
With `CCCCCACACCCAGGAAUGGGCCCUCCACAGAGCCCCAUGGACCAGCACAGCCAAGGUUAUAUGUCACCACAUCCGUCUCCUCUGGGAGCCCCGGAGCACGUCUCUAGCCCUAUAUCUGGA` the bound/input enrichment was 0.305 ratio.
`GCUGCUUUUCACAGUUUAGUGGGUUUGGCAGCUGUACUUACUUGCAUAGCUGAGUACAUUAUAGAAUAUCCACAUUUUGCUACGGAUGCAGCAGCAAAUCUCACCAAGAUUGUGGCCUAC` gave a bound/input enrichment of 0.873 ratio.
With `UGGAGAGGAAUCCUAUUAUUUGGACCACCAGGAACAGGAAAAUCUUAUUUGGCUAAAGCUGUUGCAACGGAAGCAAACAACUCAACAUUUUUCUCAAUAUCUUCCUCUGACCUUGUGUCU` the bound/input enrichment was 0.186 ratio.
`GCCUAGUCUGUGUAAGCAAGAAGUAGGACCAAACUGAGGAAACUACUUGGUCCAUUUAGAUAGCAGUUUAUUCAUACUCAGUGACCCGCAGGCCUCCACCUCUGCUUGAGGGAAGGGCUU` has a bound/input enrichment of 2.19 ratio.
`GGUCCGCCAAUAGAAAAUGGAUUCUAUUAUGACAUGUACCUCGAAGAAGGGGGUGUGUCUAGCAAUGAUUUCUCUUCUCUGGAGGCUUUGUGUAAGAAAAUCAUUAAAGAAAAACAAGCU` has a bound/input enrichment of 0.53 ratio.
The bound/input enrichment of `AGCAGCCAUCUUAUCAACCUUCUGAACCCCAAAGGAAAGCCAGCAAACCAGCUGCUUGCUCUUAGGACUUUUUGCAAUUGCUUUGUUAGUCAGGCAGGACAAAAGCUCAUGAUGUCCCAG` is reported as 0.329 ratio.
With `CUGCAGCUAACGUCUCCCACUGACUACUCCAUUUUUGAUAACUAUUACAUCCCUGAAAUCACUAGUGUUUUGCUGUUGCGAUCCUGUAAGACUUUAACCCAUGAGAUCGGACACAUACUU` the bound/input enrichment was 0.645 ratio.
With `UUGGAUUCAUUAGCAGAAAGUCCUGAAUCAGAUUUUAUGUCUGCUGUGAAUGAGUUUGUAAUAGAAGAAAAUUUGUCGUCUCCUAAUCCUAUAAGUGAUCCACAAAGCCCAGAAAUGAUG` the bound/input enrichment was 0.491 ratio.
With `GUAGUUAUGAAUCGCAGACGCAAGAGGUUUCAGCAUUCCCAAUUAUCAAAAAACAGAAAAACAAAAAAAAGAAAGAAAAAAGUGCAACUUGAGGGACGACUUUCUUUAACAUAUCAUUCA` the bound/input enrichment was 0.594 ratio.
For `UCUCUUUAUCCUCAGUUUAUGUUUCAUUUAAGAAGAUCUCCUUUCUUGCAAGUUUUUAACAAUAGUCCUGAUGAGAGUUCAUACUAUCGUCACCAUUUCAUGCGUCAGGAUCUGACCCAG`, the bound/input enrichment was 0.941 ratio.
The bound/input enrichment of `AGGUAUCAUUGCCCAGUGCCUAAGAUCUUUUAUGUUCAGCUCACUGUAGGAAAUAAUGAAUUUUUUGGGGAAGGAAAGACUCGACAAGCUGCUAGACACAAUGCUGCAAUGAAAGCCCUC` is reported as 5.24 ratio.

Study 5
Target: RNA binding protein fox-1 homolog 2, RRM domain, GST-SBP tag (RBFOX2, Homo sapiens, UniProt O43251-10, residues 100-194)
Method: RNA Bind-n-Seq
Form: RNA
Sample: in vitro
Concentration: 365 nM
Setting: natural RNA segment, single round, ends assumed
Relative to: no-protein control
Direction: higher = stronger binding
Shared flanks, not repeated: GGGAGUUCUACAGUCCGACGAUC … UGGAAUUCUCGGGUGCCAA
Residues (chain): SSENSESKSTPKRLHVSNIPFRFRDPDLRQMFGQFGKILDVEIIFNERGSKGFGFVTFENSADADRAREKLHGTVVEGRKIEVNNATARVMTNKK
`ACCUUUUGUUAAUUAUCUAAAUGGGAAAUGCCAUUAGCUAAACCCCACACACAGCACAGAGAGCAGAGUUUAACCAUAGAUCAUGGUAGGCUCAACAUUCCCUUCUAAAG`: “RBNS enrichment (R)” 0.426.
`AUUUUUUCCUGUACUGGAUGGCUAGGAUUCUAGAGAAUUGAUUAUAAAAUAUUUUCAAUACAUCCAACAUUGCACUUCUCAUUUUUUAAAUGAUUCUGUCACGUAGAAUC` — result for “RBNS enrichment (R)”: 0.985.
For `AAGCAGAAGGGAAGGAGUGUGGCGGAGGCUGGGAUGGAUUCCCUAAGCCAAGCCUGCCCAGCUAAUGAGCUGUUUGACGUUGAACUUGAAAGCUUUCCCCUCCCUCUAAG`, “RBNS enrichment (R)” read 0.428.
`AAUGUAUGUCUCUAGGACAUUUUAUAGUUUUAAGAGGAAGAAAACAGAAACGUGGCAUCAUUUGGGAAGAACCAAGGUAGAAUUUAAUUUUCUGGACUUUAAAUCUCCUG`: “RBNS enrichment (R)” 0.913.
For `UCUUAAACGGGUGUCAGCAAGAAGAAAAACUAACAAAAGACAGAAGGCCUGACUUUGGGGGGAGAGGGCAAGGGGUUCCUCUGGAUUGCAGACCACAUCGCACGGACCCC`, “RBNS enrichment (R)” read 0.861.
For `GCGCCUACCCGGGCCGCCCCCGCGGCCUGGCCCUCGGCGCGGGCUCCUUCCCGCUUCCCCCGACUUCACACGGCGGCUUCGGACCAACUCCCUCACUCCCGCCCGAGGGG`, “RBNS enrichment (R)” read 0.324.
`GAGCUGUGUUAAACCUUAACAUGAGACUCAUAUAUUCAGGGUUACAUGAGUUACUUUUAUAAAUCGAUGACCCCCCACCCCCACCCUCACGUCUUACUCUGAGGUGUGUG` — result for “RBNS enrichment (R)”: 0.397.
Under “RBNS enrichment (R)”, `GCCAUGGGCCCACAGAGUCUCGCUAUCAUCCCCAGCGUCGCAGUGUGGCAGGUGUUUGUAGGCUGUGGGUUCUGGCCACCUCGGGAAAUGAAUGGCACAGGUGAGGGCCU` is recorded as 0.684.
`AUCUCCGAGUGAGGGAGGCCAGCCCCCACAUUUGUCCUCUGCAGGCUCAUUUUGUUGAGCGUCUGCUUUUAUCUUGACACUGAGCACGAGAGGGCACGGGUGGGUGCUCA` — result for “RBNS enrichment (R)”: 1.
Under “RBNS enrichment (R)”, `UUUUUUCCUGUCCUGUAAAGAGAGAAUUCUUAAGAUAUCAGGCAUAAUGUAUGUACCUUUUCCAGACUGAAGUUCAAAGAAUGAUUAGGUUCAAUCUUUCAGUGGCAGGC` is recorded as 0.375.
For `CACGCAGCUCUCUGGUUAGACUUCUCCCAGGCUAUGAUCCUGGCAUGUCCUUUAUAAGGUAUACUUGGAUUGGCCGAGACCUGGCCUGGCAUCAGGAGUCCAAACCUCUG`, “RBNS enrichment (R)” read 0.337.
`UGGAUGGAACUCACCUGCCUGAACUGAGCAGGAAUGUCAGUCUUCCACUGCCCCUCCCUGCCAUCUUCUGCUACUUAGCUUGGGAGUUGAUGGUUGCAGAAGCCACACAG`: “RBNS enrichment (R)” 0.279.

Repeated from above (study 2):
The E-score of `CTGCTGAA` is reported as 0.0607.
`AAAGTTAG` gave an E-score of 0.0289.
With `GATATTAA` the E-score was 0.135.
`CGTAACGA` gave an E-score of -0.132.
`CCTATATC` gave an E-score of -0.0974.
With `GAAAACGC` the E-score was 0.0814.
`ACTATACT` has an E-score of -0.0211.
The E-score of `CCTTCGAC` is reported as -0.0369.
With `GCTTCTCC` the E-score was -0.0957.
`GCTTAACC` has an E-score of -0.0226.
The E-score of `CTGACAAC` is reported as 0.127.
With `GGTCTCAC` the E-score was -0.0914.
For `ATGATTGG`, the E-score was -0.0999.
